Results collected from several papers.
± marks the error that the study gave.
Organism: Trypanosoma brucei

Structure (SMILES)	test	test system	setting	how to read	endpoint	value
CN1CCC(n2cnc(-c3ccc(F)cc3)c2-c2ccnc(N)n2)CC1			unit not given	baseline: pEC50 T. brucei minus pTC50 HepG2	selectivity	> 2
Cc1ccc(Nc2cnnc3ccc(-c4ccc(N5CCN(C)CC5)cc4)cc23)cn1	cell growth				EC50	1 ± 0.34 µM
Cc1ccc2c(c1)C(=NNc1ccc(S(N)(=O)=O)cc1)C(=O)N2			unit not given	baseline: pEC50 T. brucei minus pTC50 HepG2	selectivity	1.3
Cc1ccc(Nc2cnnc3cc(-c4ccc(N5CCN(C)CC5)cc4)ccc23)cn1	cell growth				EC50	2.6 ± 0.93 µM
COc1cc(NC(=O)c2ccc(OC(F)(F)F)cc2)ccc1S(N)(=O)=O	cell viability, MTS	Lister 427	48 h		IC50	> 20 µM
CN1CCN(c2ccc(-c3ccc4nncc(Nc5ncccn5)c4c3)cc2)CC1	cell growth				EC50	0.74 ± 0.43 µM
C[n+]1cc(NC(=O)c2ccc3ccc4ccc(C(=O)Nc5cc6ccccc6[n+](C)c5)nc4c3n2)cc2ccccc21	RNA-seq	Lister 427 bloodstream form	2 × EC50, 4 h, ChIP-seq G4 peak overlap		differentially expressed G4-containing genes	18 genes
CN1CCN(c2ccc(-c3ccc4c(Nc5cnccn5)cnnc4c3)cc2)CC1	cell growth				EC50	9.9 ± 3.2 µM
COc1ccc2[nH]c3c4[nH]c5ccc(OC)cc5c4c4c(c3c2c1)C(=O)NC4=O			unit not given	baseline: pEC50 T. brucei minus pTC50 HepG2	selectivity	0.8
CN1CCN(c2ccc(-c3ccc4nncc(Nc5cnccn5)c4c3)cc2)CC1	cell growth				EC50	0.46 ± 0.04 µM
Cc1cnc(CNC(=O)c2c(=O)c3ccc(N4CCCN(C)CC4)nc3n3c2sc2ccccc23)cn1	RNA-seq	Lister 427 bloodstream form	2 x EC50, 4 h, log2 FC ±1, FDR 0.05	baseline: untreated	differentially expressed genes	357 genes
COc1ccc2ncn(-c3cc(O[C@H](C)c4ccccc4C(F)(F)F)c(C(N)=O)s3)c2c1			unit not given	baseline: pEC50 T. brucei minus pTC50 HepG2	selectivity	1.9
Cc1ccc(C(F)(F)F)c(COc2cc(NC(=O)c3cccc(C(=N)N)c3)ccc2N(C)S(=O)(=O)C(F)(F)F)c1	MTS	Lister 427 bloodstream form			growth-inhibitory concentration	200 nM
C[C@]1(O)C[C@@H](c2nc(-c3ccc4ccc(-c5ccccc5)nc4c3)c3c(N)nccn32)C1	cell growth				EC50	> 3 µM
Cc1ccc(Cn2cc(C(=O)NN)c(=O)c3cc(Oc4ccccc4)ccc32)cc1	parasite growth	Squib 427			EC50	0.5 µM
COc1cc(NC(=O)c2ccc(Br)cc2)ccc1S(N)(=O)=O	cell viability, MTS	Lister 427	48 h		IC50	< 5 µM
Nc1ncnc2occ(-c3ccc(NC(=O)Nc4cc(C(F)(F)F)cc(C(F)(F)F)c4)cc3)c12			unit not given	baseline: pEC50 T. brucei minus pTC50 HepG2	selectivity	0.3
COc1cc(NC(=O)c2ccc([N+](=O)[O-])cc2)ccc1S(N)(=O)=O	cell viability, MTS	Lister 427	48 h		IC50	< 5 µM
COc1ccc(Nc2cnnc3cc(-c4cnc(N5CCCN(C)CC5)nc4)ccc23)nc1	cell growth				EC50	3.3 ± 1.3 µM
Nc1nccc(C#Cc2cncnc2Nc2ccc(OCc3cccc(F)c3)c(Cl)c2)n1			unit not given	baseline: pEC50 T. brucei minus pTC50 HepG2	selectivity	1.1
CN(C)CCNC(=O)c1cccn2c(=O)c3cc4ccccc4cc3nc12	RNA-seq	Lister 427 bloodstream form	2 × EC50, 4 h, log2 FC 1, FDR 0.05	baseline: untreated	differentially expressed genes	289 genes
COc1ccc(Nc2cnnc3ccc(-c4ccc(N5CCN(C)CC5)cc4)cc23)cc1Cl	cell growth				EC50	0.2 ± 0.09 µM

Some of these lines once more:
Structure (SMILES)	test	test system	setting	how to read	endpoint	value
COc1ccc(Nc2cnnc3cc(-c4cnc(N5CCCN(C)CC5)nc4)ccc23)nc1	cell growth				EC50	3.3 ± 1.3 µM
Nc1nccc(C#Cc2cncnc2Nc2ccc(OCc3cccc(F)c3)c(Cl)c2)n1			unit not given	baseline: pEC50 T. brucei minus pTC50 HepG2	selectivity	1.1
CN(C)CCNC(=O)c1cccn2c(=O)c3cc4ccccc4cc3nc12	RNA-seq	Lister 427 bloodstream form	2 × EC50, 4 h, log2 FC 1, FDR 0.05	baseline: untreated	differentially expressed genes	289 genes
